Results from different studies.
± gives the spread as reported.
Target: Indoleamine 2,3-dioxygenase 1 (IDO1, Homo sapiens, UniProt P14902)
Sequence of UniProt P14902 (whole entry, looked up): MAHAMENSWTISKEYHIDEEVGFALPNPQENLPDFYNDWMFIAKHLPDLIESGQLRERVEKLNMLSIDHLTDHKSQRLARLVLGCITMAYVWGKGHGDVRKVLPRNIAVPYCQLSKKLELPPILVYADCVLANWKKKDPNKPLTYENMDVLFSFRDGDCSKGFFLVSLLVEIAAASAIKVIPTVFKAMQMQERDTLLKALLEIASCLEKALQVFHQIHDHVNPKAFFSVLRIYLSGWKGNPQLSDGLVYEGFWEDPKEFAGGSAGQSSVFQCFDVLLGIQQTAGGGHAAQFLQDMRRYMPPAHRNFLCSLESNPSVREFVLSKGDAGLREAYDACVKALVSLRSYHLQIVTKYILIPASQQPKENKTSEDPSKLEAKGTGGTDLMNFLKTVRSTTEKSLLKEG
Mode: inhibitor

Oc1ccc(CCNc2ncnc3[nH]ncc23)cc1  IC50: > 500 µM
C[C@@H]1O[C@@H](OCc2cc(O)c3c(c2)[C@H]([C@@H]2O[C@H](CO)[C@@H](O)[C@H](O)[C@H]2O)c2cccc(O)c2C3=O)[C@H](O)[C@H](O)[C@H]1O  IC50 (kynurenine formation): 43.9 ± 1.95 µM
O=C1CCC(N2Cc3c(NC(=O)COCCOCCOCCOCCNCCNc4nonc4/C(=N/O)Nc4ccc(F)c(Br)c4)cccc3C2=O)C(=O)N1 (stereo not drawn)  IC50 (kynurenine production; HeLa): 5.91 µM
CC(=O)c1cc(CO[C@H]2OC[C@H](O[C@@H]3O[C@H](CO)[C@@H](O)[C@H](O)[C@H]3O)[C@@H](O)[C@@H]2O)c2cccc(O[C@@H]3O[C@@H](C)[C@H](O)[C@@H](O)[C@H]3O)c2c1O  IC50 (kynurenine formation): 83.8 ± 1.33 µM
Cc1cc(=O)c(O)c(CN2CCSCC2)n1C  IC50: 43.9 µM
OCCOCCOCCOCCOCCOCCOCCOCCNCCNc1nonc1/C(=N/O)Nc1ccc(F)c(Br)c1  IC50 (kynurenine production; HeLa): 3.82 µM
COC1=Cc2c(cc(O)c3cc(C)c(OC)cc23)C(C)(C)C1=O  IC50 (enzyme activity): 2.2 µM
COc1cc(C)c2c(=O)cc(C[C@@H](C)O)oc2c1[C@@H]1O[C@H](CO)[C@@H](O)[C@H](O)[C@H]1OC(=O)/C=C/c1ccc(O)cc1  IC50 (kynurenine formation): 99.5 ± 2.75 µM
N=C(N)SCc1ccc(CSC(=N)N)cc1  IC50 (enzyme activity; together with: 200 µM L-tryptophan): > 30 µM
O=C1c2c(O)cccc2[C@@H]([C@@H]2O[C@H](CO)[C@@H](O)[C@H](O)[C@H]2O)c2cc(CO)cc(O)c21  IC50 (kynurenine formation): 42.2 ± 1.51 µM
Cc1cc(O)n(Cc2ccccc2)n1  IC50: > 500 µM
N=C(N)SCc1ccc(Cl)cc1  IC50 (enzyme activity; together with: 200 µM L-tryptophan): 4.09 µM

A few entries again:
N=C(N)SCc1ccc(Cl)cc1  IC50 (enzyme activity; together with: 200 µM L-tryptophan): 4.09 µM
